# Published values of several laboratories.
# Numbered parts are unrelated; each lists some results of a single study. Several values in a cell are separate wells, animals, samples, runs or records.
# Sequence of UniProt P42681 (whole entry, looked up): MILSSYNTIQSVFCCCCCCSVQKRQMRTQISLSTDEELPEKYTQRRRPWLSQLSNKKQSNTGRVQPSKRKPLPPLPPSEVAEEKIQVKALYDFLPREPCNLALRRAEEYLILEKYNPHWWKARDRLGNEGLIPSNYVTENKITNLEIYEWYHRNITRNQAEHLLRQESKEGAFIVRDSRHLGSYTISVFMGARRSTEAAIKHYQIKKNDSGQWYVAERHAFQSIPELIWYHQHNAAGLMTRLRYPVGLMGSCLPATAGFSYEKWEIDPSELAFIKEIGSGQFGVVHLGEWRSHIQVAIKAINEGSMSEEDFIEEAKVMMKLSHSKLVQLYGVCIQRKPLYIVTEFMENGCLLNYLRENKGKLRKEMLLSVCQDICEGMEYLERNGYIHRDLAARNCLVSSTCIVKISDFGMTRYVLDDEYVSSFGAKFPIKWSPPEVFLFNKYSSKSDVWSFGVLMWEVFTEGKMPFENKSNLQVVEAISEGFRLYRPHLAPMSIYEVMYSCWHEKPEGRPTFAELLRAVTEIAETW
# Sequence of UniProt Q9H2G2 (whole entry, looked up): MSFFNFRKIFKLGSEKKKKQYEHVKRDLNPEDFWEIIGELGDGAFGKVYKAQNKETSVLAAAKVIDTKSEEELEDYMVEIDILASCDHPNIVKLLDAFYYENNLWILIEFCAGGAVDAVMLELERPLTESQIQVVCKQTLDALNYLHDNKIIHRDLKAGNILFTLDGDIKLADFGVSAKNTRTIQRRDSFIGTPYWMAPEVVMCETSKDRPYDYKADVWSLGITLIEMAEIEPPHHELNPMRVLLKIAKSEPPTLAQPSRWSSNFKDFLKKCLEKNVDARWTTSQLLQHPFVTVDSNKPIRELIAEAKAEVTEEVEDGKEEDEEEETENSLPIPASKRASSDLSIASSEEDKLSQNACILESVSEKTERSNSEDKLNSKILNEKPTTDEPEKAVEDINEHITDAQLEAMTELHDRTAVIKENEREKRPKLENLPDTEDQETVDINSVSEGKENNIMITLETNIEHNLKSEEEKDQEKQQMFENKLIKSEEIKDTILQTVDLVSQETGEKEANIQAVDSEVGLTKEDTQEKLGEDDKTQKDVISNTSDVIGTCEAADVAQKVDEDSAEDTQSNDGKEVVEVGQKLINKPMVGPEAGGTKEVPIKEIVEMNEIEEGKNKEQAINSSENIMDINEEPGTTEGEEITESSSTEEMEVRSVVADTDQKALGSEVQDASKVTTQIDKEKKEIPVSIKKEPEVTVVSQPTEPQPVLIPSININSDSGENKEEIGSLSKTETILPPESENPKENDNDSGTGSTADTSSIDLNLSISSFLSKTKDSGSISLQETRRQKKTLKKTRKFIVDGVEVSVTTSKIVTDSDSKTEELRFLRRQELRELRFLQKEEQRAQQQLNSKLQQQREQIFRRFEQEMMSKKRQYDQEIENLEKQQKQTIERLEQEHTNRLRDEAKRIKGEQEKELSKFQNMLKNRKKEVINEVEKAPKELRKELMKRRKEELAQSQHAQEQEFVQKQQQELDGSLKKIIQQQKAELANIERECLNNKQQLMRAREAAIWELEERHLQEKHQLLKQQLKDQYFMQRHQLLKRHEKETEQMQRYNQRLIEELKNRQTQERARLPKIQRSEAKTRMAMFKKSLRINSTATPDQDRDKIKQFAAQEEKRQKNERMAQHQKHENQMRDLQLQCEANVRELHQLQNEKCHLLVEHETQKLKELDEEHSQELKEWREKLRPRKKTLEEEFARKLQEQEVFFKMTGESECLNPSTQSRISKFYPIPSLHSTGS

# Study 1
# Target: Testis-specific serine/threonine-protein kinase 2 (TSSK2, Homo sapiens, UniProt Q96PF2)
# Read-out: enzyme activity
# Mode: inhibitor
# Tested at: 0.5 µM
# Relative to: control
# Construct (Q96PF2 1-358): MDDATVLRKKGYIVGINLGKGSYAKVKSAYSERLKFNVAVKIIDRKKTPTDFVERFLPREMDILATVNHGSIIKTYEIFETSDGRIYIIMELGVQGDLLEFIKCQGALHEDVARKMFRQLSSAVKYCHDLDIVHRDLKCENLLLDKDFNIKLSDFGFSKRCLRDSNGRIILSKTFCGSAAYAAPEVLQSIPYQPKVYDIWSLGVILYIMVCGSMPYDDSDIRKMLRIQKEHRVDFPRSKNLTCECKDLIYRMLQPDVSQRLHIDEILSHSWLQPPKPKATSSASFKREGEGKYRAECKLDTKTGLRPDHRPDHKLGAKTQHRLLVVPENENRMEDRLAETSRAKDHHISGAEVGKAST
Structure (SMILES),remaining activity [%]
N#CC(C#N)=C(N)/C(C#N)=C/c1ccc(O)cc1,94.6
COc1ccc(OC)c2c(=S)c3ccccc3[nH]c12,108
OCC(O)CCON=C1C(c2c(O)[nH]c3ccccc23)=Nc2ccccc21 (stereo not shown),96.2
O=C1NC(=O)C(c2cn(CCCO)c3ncccc23)=C1c1cnccn1,119
Oc1ccc(-c2nc(-c3ccncc3)c(-c3ccc(F)cc3)[nH]2)cc1,93.1
C#Cc1cccc(Nc2ncnc3cc(OCCOC)c(OCCOC)cc23)c1,87.6
Nc1[nH]nc2nc3ccccc3nc12,110
Cn1c2ccccc2c2c3c(c4c5ccccc5n(CCC#N)c4c21)CNC3=O,74.3
COc1cc2ncnc(Nc3ccc(F)c(Cl)c3)c2cc1OCCCN1CCOCC1,91.5
CC(C)[C@H](CO)Nc1nc(Nc2cc(N)cc(Cl)c2)c2ncn(C(C)C)c2n1,102
NCCNc1ncc(C(N)=O)c(Nc2cccc(C(F)(F)F)c2)n1,79.2
Nc1ncnc2n[nH]c(Nc3ccc(F)cc3)c12,90.8
O=C1NC(=O)C(c2cn(CCCn3ccnc3)c3ccccc23)=C1Nc1ccccc1,97.9
COc1ccc(C(=O)Nc2sc3c(c2C(N)=O)CCCC3)cc1OC,94.6
COc1cc2ncnc(Nc3ccc(Oc4ccccc4)cc3)c2cc1OC,103
O=C(Nc1cccc(Nc2cc(Nc3cccc(C(F)(F)F)c3)ncn2)c1)C1CC1,103
Cc1ccc(NC(=O)c2ccc(CN3CCN(C)CC3)cc2)cc1Nc1nc(-c2cccnc2)cs1,102
O=c1c2ccccc2[nH]c(=S)n1CCN1CCC(=C(c2ccc(F)cc2)c2ccc(F)cc2)CC1,101

# Study 2
# SMILES: O=C(NCCCC1CCCCC1)c1ccc(CNC(=O)c2cnn(-c3ccccc3)c2C(F)(F)F)cc1
# Technique: competition with immobilised ligand
# Tested at: 0.1 µM
target,read-out,remaining binding
"SLK (Homo sapiens, UniProt Q9H2G2)",cell-free assay,100%
"FLT3 (Homo sapiens, UniProt P36888, K663Q)",cell-free assay,100%
"TXK (Homo sapiens, UniProt P42681)",binding,100%
"TSSK1B (Homo sapiens, UniProt Q9BXA7)",cell-free assay,94%

# Study 3
# SMILES: CC(C)S(=O)(=O)c1ccc2nccc(Nc3ccc4scnc4c3)c2c1
# Cell line: L929
# Read-out: caspase activity
# Technique: Ac-DEVD-pNA absorbance
# Reading: higher = more activity
tested at,time,caspase-3 activity
5 µM,1 h,0.0065 a.u. and 0.016 a.u. and 0.024 a.u. and 0.011 a.u.
10 µM,0 h,-0.0035 a.u. and 0.007 a.u. and 0.018 a.u. and 0.005 a.u.
5 µM,3 h,0.067 a.u. and 0.066 a.u. and 0.166 a.u. and 0.065 a.u. and 0.169 a.u.

# Study 4
# Cell line: mouse MPNST tumor cells
# Technique: high-content nuclear imaging
# Measured: cell number
# Tested at: 10 µM
# Time: 12 h
# Setting: mean of 2 replicates
# Relative to: plate mean
# Reading: higher = more cells
Compound,nuclei count
COC(=O)c1cc2c(C(F)(F)F)cc(-c3ccccc3)cc2n1O,0.512 z-score
CC(CC(=O)OC(C)(C)C)NC(=O)C1=NOC(C(O)(C(F)(F)F)C(F)(F)F)C1 (stereo not shown),1.46 z-score
Cc1ccccc1C(=O)Nc1ccc(C(=O)N2CCCC(O)c3cc(Cl)ccc32)c(C)c1 (stereo not shown),6.37 z-score and 4.65 z-score and 1.7 z-score
CCC(=O)O[C@]1(C(=O)CCl)[C@@H](C)C[C@H]2[C@@H]3CCC4=CC(=O)C=C[C@]4(C)[C@@]3(F)[C@@H](O)C[C@@]21C,5.22 z-score
COc1ccc(C(=O)CC(=O)c2ccc(C(C)(C)C)cc2)cc1,1.18 z-score
Cc1cccc(C)c1NC(=O)C1CCCCN1C (stereo not shown),0.379 z-score
CC(CN(C)C)CN1c2ccccc2Sc2ccccc21 (stereo not shown),-1.98 z-score

# Study 5
# Structure (SMILES): CC(C)(C(=O)O)[C@H](NC(=O)Cc1cccc(I)c1)c1ccc2oc(=O)[nH]c2c1
# Technique: Incucyte 3D growth
# Tested at: 30 µM
# Reading: higher = more growth
cell line,time,spheroid area
MEL-JUSO,336.52 h,3.66e+07 a.u. and 3.12e+07 a.u. and 4.23e+07 a.u. and 3.91e+07 a.u. and 3.26e+07 a.u. and 5.15e+07 a.u.
NCI-H358,168 h,9.17e+06 a.u. and 5.98e+06 a.u. and 6.26e+06 a.u. and 7.06e+06 a.u. and 6.53e+06 a.u. and 7.78e+06 a.u.
A375,498.52 h,1.55e+08 a.u. and 1.45e+08 a.u. and 1.41e+08 a.u. and 1.56e+08 a.u. and 1.43e+08 a.u. and 1.77e+08 a.u.
MEL-JUSO,246.52 h,1.89e+07 a.u. and 2.25e+07 a.u. and 2.07e+07 a.u. and 1.54e+07 a.u. and 1.72e+07 a.u. and 3.47e+07 a.u.
PC-9,150 h,1.17e+09 a.u. and 1.18e+09 a.u. and 1.11e+09 a.u. and 1.21e+09 a.u. and 1.14e+09 a.u.
KP-4,138 h,2.02e+07 a.u. and 2.07e+07 a.u. and 2.12e+07 a.u. and 1.93e+07 a.u. and 1.61e+07 a.u.
PC-9,72 h,5.38e+08 a.u. and 5.65e+08 a.u. and 5.29e+08 a.u. and 5.6e+08 a.u. and 5.61e+08 a.u.
MEL-JUSO,258.52 h,2.03e+07 a.u. and 1.69e+07 a.u. and 3.62e+07 a.u. and 1.96e+07 a.u. and 2.09e+07 a.u. and 2.34e+07 a.u.

# Excerpt of the above (study 5):
cell line,time,spheroid area
A375,498.52 h,1.55e+08 a.u. and 1.45e+08 a.u. and 1.41e+08 a.u. and 1.56e+08 a.u. and 1.43e+08 a.u. and 1.77e+08 a.u.
MEL-JUSO,246.52 h,1.89e+07 a.u. and 2.25e+07 a.u. and 2.07e+07 a.u. and 1.54e+07 a.u. and 1.72e+07 a.u. and 3.47e+07 a.u.
PC-9,150 h,1.17e+09 a.u. and 1.18e+09 a.u. and 1.11e+09 a.u. and 1.21e+09 a.u. and 1.14e+09 a.u.
KP-4,138 h,2.02e+07 a.u. and 2.07e+07 a.u. and 2.12e+07 a.u. and 1.93e+07 a.u. and 1.61e+07 a.u.
PC-9,72 h,5.38e+08 a.u. and 5.65e+08 a.u. and 5.29e+08 a.u. and 5.6e+08 a.u. and 5.61e+08 a.u.
MEL-JUSO,258.52 h,2.03e+07 a.u. and 1.69e+07 a.u. and 3.62e+07 a.u. and 1.96e+07 a.u. and 2.09e+07 a.u. and 2.34e+07 a.u.
